Experimental data from different studies.
Every numbered part comes from another study and shows a few of its results, in no order. Substitutions count along the parent as printed.

Block 1
Target: Sal-like protein 4, full length isoform A (SALL4, Homo sapiens, UniProt Q9UJQ4, residues 1-1053)
Chain of UniProt Q9UJQ4 (whole entry, looked up): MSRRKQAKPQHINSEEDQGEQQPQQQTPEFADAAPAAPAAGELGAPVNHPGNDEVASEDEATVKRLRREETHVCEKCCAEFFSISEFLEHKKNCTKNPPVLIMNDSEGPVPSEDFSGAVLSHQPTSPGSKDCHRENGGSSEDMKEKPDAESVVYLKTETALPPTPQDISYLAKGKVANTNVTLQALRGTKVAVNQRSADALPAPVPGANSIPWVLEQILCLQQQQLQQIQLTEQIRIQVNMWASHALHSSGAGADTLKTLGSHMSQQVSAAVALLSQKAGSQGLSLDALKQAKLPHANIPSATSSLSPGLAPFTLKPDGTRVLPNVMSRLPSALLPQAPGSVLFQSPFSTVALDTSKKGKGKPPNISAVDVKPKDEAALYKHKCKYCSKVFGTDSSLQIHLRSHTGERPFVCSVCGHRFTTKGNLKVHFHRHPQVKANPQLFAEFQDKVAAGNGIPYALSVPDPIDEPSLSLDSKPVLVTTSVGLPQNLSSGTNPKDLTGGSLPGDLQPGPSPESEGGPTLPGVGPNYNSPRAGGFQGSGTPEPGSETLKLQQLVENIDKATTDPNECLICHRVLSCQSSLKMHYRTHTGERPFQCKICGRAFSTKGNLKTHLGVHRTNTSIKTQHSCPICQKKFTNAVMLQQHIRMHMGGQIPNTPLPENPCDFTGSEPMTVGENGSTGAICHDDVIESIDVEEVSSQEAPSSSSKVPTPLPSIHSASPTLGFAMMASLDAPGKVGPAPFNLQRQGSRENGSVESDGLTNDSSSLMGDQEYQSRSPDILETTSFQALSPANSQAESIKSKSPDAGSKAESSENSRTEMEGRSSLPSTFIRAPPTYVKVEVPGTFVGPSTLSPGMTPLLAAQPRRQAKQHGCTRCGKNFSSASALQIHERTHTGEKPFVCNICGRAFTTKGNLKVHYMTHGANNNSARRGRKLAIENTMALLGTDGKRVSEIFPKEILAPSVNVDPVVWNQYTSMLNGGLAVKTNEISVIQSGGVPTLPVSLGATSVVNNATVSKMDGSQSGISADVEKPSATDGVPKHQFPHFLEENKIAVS
Method: universal PBM
Molecule type: double-stranded DNA, one strand shown
Matrix: in vitro
Concentration: 600 nM
Setting: 8-mer, flanks averaged, mean of replicates
Reading: higher = stronger binding
Oligonucleotide | E-score
GAGTATTA | 0.308
CCTTGTAC | 0.0822
GAAGGAAC | -0.0728
GCCGGTCC | -0.415
AGTTTTCA | 0.186
CGCTGACG | -0.311
TGTTCGAA | 0.0277
CCAACCGA | -0.0486
AACGCCAC | -0.267
ACGTGTTG | 0.134
ACGCTACA | 0.0293
CCTCACTA | -0.0617
CGTTACAA | 0.229
GAACACTC | -0.0478
ATGCCCTC | -0.0656
ACTTTCCG | 0.0166
AAGCAGGT | -0.0348
AGAGTCCA | -0.0636
CGACACGA | -0.0984
ATTACGTC | 0.16
CCGGCATA | -0.121
CTACCTTA | 0.021
CGAGGAGA | -0.196

Block 2
Target: CCNF, cyclin fold, Cln2 fusion (human)
Method: yeast growth competition, sequencing
Matrix: yeast
Setting: strong parent motif
Reference: not given
Reading: higher = stronger binding
Parent: CDC6 docking peptide (human); TLKGRRLVFDNQL
Change | normalised enrichment score
N11S | 8.3
L7P | 0.468
F9S | 0.88
N11M | 8.51
G4Q | 8.24
G4W | 2.27
R6N | 2.6
L2K | 8
R5D | -0.551
L7A | 0.901
T1C | 8.76
K3D | 4.29
D10E | 6.05

Block 3
Target: Interferon regulatory factor 5, full length, phosphomimetic (IRF5, Homo sapiens, UniProt Q13568-2, residues 1-514, S451D/S453D/S456D/S462D)
Method: protein-binding microarray
Molecule type: double-stranded DNA, one strand shown
Matrix: in vitro
Concentration: 940 nM top
Setting: 60-bp whole probe
Together with: salmon DNA 0.4 mg/ml
Reference: random background probes
Reading: higher = stronger binding
All sequences stand within: GCCTAGCAC … GTCTTGATTCGCTTGACGCTGCTG
Oligonucleotide | fitted relative affinity [z-score]
TTTTTTTTATTTATAAATTAGTGCTAG | 0.163
GACGGTCTCCTTATCTTGACGTGCTAG | 0.518
GACGGTATCGACTATAGGGACGTGCTA | 4.4
GACGATTTCGGGACTGGTGACGTGCTA | -0.0423
TTAGGTTTCGGGTTTCAGTTAGTGCTA | 10.4
GACGATTTCATTTCCGAGACGTGCTAG | 0.86
TTGGAACTGAGTCTCGATTAGTGCTAG | 2.56
CTAATTTTCAATTCCTGAAAGTGCTAG | 0.656
TTAAGTTTCGGTTTCGGTTAGTGCTAG | 16.5
GGTAGGCGGGGCCCCTGGCCGTGCTAG | -0.957
TTAGATATCCGTATCGATTAGTGCTAG | 1.88
GGCGATTCCAGTTTCGAGACGTGCTAG | 4.76
GACGGTATCCTAATCCTGACGTGCTAG | -0.245
TTAGGACTGGAGTTTCGGTTAGTGCTA | 5.81
TTAGTTATCGGGTTTCGATTAGTGCTA | 5.68
GACGATTTCCGTCTCGAGACGTGCTAG | 0.922
TTAGGTTTCGGGTATCGGTTAGTGCTA | 12
TTAGGTCTCGGTTTCGGTAAGTGCTAG | 8.85
TTAGATTCCAGGTTCGATTAGTGCTAG | 0.339
TTCGGTTTCGACTATCGGTTAGTGCTA | 9.23
TCAGAAATCGGTGATCAGACTGTGCTA | -0.44
TTAGGTATCCTTCGCCTTTAGTGCTAG | 0.351
TTAGGACTGGGATTTCGGTTAGTGCTA | -0.07
GACGGATTCGGGTATCGGGACGTGCTA | 1.05
TCATACATCTATGTAGAACTGTGCTAG | 0.0346

Other studies, line by line
Molecule | target | assay | test system | conditions | how to read | endpoint | value
PhoQ, residues 284 288 289 292 302 303 GANMMA | PhoP, residues 12 14 15 18 19 AQCLL (Escherichia coli, UniProt P23836) | Sort-seq, refers to: YFP reporter | E. coli | PhoQ-PhoP variant library, together with: 10 µM Mg2+ | reference: high Mg2+ state, higher = stronger signaling | fold induction | 2.53

Repeated from above (other studies, line by line):
Molecule | target | assay | test system | conditions | how to read | endpoint | value
PhoQ, residues 284 288 289 292 302 303 GANMMA | PhoP, residues 12 14 15 18 19 AQCLL (Escherichia coli, UniProt P23836) | Sort-seq, refers to: YFP reporter | E. coli | PhoQ-PhoP variant library, together with: 10 µM Mg2+ | reference: high Mg2+ state, higher = stronger signaling | fold induction | 2.53
